Assay results from different studies.
A part holds a random share of what one study measured. Changes are numbered by the printed parent chain.

Set 1
Target: RNA binding protein fox-1 homolog 2, RRM domain, GST-SBP tag (RBFOX2, Homo sapiens, UniProt O43251-10, residues 100-194)
Technique: RNA Bind-n-Seq
Molecule type: RNA
Sample: in vitro
Tested at: 365 nM
Setting: natural RNA segment, single round, ends assumed
Relative to: no-protein control
Direction: higher = stronger binding
Shared flanks, not repeated: GGGAGUUCUACAGUCCGACGAUC … UGGAAUUCUCGGGUGCCAA
Residues (chain): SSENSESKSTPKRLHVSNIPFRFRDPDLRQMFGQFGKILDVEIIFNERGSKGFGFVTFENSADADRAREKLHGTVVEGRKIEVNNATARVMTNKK
Sequence | RBNS enrichment (R)
UUGCUUGUUCUCCCCUAUAAAGUAGUAGGCUCCACACUUGUUUUUGUGGUAAACAGGAGCAGUCACUCCUCUGUCUAAGAACUGGGGGCAAGAAAGAGCAAAUUUGUCCU | 0.35
UGGGUUAGAGUCCUGUGCUGGCCUGCCAUGGCAGCUGGCUACCUUCCAGACCAACUGUAGAGAUACCUGGCAUUUUGAAGAAAGCCUAGACUGGAGAGCAGGGCCUCUCU | 0.847
CUCUUGGCUCCUGGUCCUCUCUGUGCUCGAUUCUCUAUCCUGUGCCAGUUUCCUCUCCGUCUCACGGAUCCCCCGGCCAUGUUCAGUCCACCCCUCUCUCUCUCUCAACU | 0.625
CUGACCCUGAAGGAGUGGUGCUGCCAGGCCUGUCCUGGCUUUCUGGGGUGUGCUGGGAGGAUUACCAAGGCCCCCUUUUUUUGUGCCCUCUUGAAUCCAAGUGUCUGUAG | 0.767
UCACUACAGCAACCACAUACAGUACAGACAACCUCCAAACCUGUUUAUAUUAGUGUAAAUAGAAAAUCUAUAGACAACUUUCUAGUUUUCUCUGGAGGCAUUUUUGGGAA | 0.882
CUGACAAGGACUUCGCCUGGCUCUCCUAGGCCCGCCCGCCGGCAGGGUCGGUGGCUGCCUCGCUCCGUCCACCCGUGUGUGUGUCCGGUGGGUCUCCACUGCGGGGCCAG | 0.325
UUCAUGGUGCUGUCCCGCCGGAGGAGGCCAUCCAUCCGUCCCUGGGAUGCAACAUGGGGUCCCAAUGCCUGAGGAGAAGACCCCCCCCCAAGGCUGACUCGCUUUCACCA | 0.52
UUCCAUUAUAAUGUUUUCGCAUGUCUGCCUCUAAAACUGUGAUUUUCAAGCUUUAGCGUGCAUCAGAAUCACCUGUAGGGCUUGUUAAAACACUAAUUGCUGGGCCUCAA | 2.39
GGCCCCAGGGACUCCUGUCAUCUGGUACUCUCCCUCUUACAGAGGAGAGAGCUAGUGGCUUAAAAGGCCUGGGGUGGUGGGGAGAUCACACCACUCUCAACCAUACUCUG | 0.248
UCCCAGCAUUUUGGGAGGCUGAGGCAAGUGGAUAACUUGAGGUCAUGAGUUCGAAACCAGCCUGGCCAAAACAGUGAAACCCCGUCUCUACUAAAAAUACAAAAUUAGCC | 0.945
UGAGAUGCAAGAGCAUUUAGCAUACCAUGUAAAUAUGGACCUUUUAAAAUUAAAAUACUAUUGGAAGUGCUUUCAACUCAGCCACAUCUUAGCUAUUAGUUCUUUGUGUU | 0.473
CCUAUAAAAAAUUUUAUUGAUGUUUAUGGUCAUGUUAGCUAUCAGAGAGCUAUUGGAGUGAGAGCUGAGGUGUCCUUAACCACUUUUUCUCUCCUAGAUUCAUUUUCAUU | 0.828

Set 2
Target: Prothrombin, mature alpha-thrombin (F2, Homo sapiens, UniProt P00734)
Technique: aptamer microarray, sandwich
Molecule type: DNA with 2'F-ANA
Sample: in vitro
Tested at: 200 nM
Setting: whole 15-mer aptamer, many near background
Added: Cy3 exosite-II aptamer, 400 nM
Direction: higher = stronger binding
Sequence: GGTTGGTGTGGTTGG
Modification | mean fluorescence intensity [a.u.]
2'F-ANA at 1 2 5 6 7 9 10 11 12 13 15 | 49.5
2'F-ANA at 4 10 14 15 | 63.5
2'F-ANA at 3 5 6 9 10 12 13 14 | 48.7
2'F-ANA at 2 5 6 8 10 12 14 | 51.2
2'F-ANA at 1 2 4 5 6 8 9 12 | 119
2'F-ANA at 3 6 7 8 13 15 | 833
2'F-ANA at 5 7 8 9 11 12 | 152
2'F-ANA at 1 2 4 8 11 12 13 15 | 195
2'F-ANA at 1 2 5 8 10 12 13 14 15 | 91
2'F-ANA at 2 4 9 12 | 582
2'F-ANA at 1 6 9 12 13 14 15 | 63.8
2'F-ANA at 1 3 4 6 8 9 11 12 13 | 256
2'F-ANA at 3 5 6 8 10 12 13 | 57.2
2'F-ANA at 1 2 10 12 13 14 | 51.7
2'F-ANA at 2 4 5 6 13 15 | 50.3
2'F-ANA at 2 4 5 10 11 14 | 45.2
2'F-ANA at 1 2 3 4 8 11 13 14 15 | 64.2
2'F-ANA at 7 8 12 | 1030
2'F-ANA at 1 2 3 5 6 8 12 14 15 | 48.8
2'F-ANA at 1 3 4 8 9 10 11 13 | 56.7
2'F-ANA at 5 7 9 12 13 15 | 105
2'F-ANA at 2 3 6 7 8 9 12 | 1180

Set 3
Target: Ras GTPase-activating protein-binding protein 1, RRM domain (G3BP1, Homo sapiens, UniProt Q13283)
Sequence of UniProt Q13283 (whole entry, looked up): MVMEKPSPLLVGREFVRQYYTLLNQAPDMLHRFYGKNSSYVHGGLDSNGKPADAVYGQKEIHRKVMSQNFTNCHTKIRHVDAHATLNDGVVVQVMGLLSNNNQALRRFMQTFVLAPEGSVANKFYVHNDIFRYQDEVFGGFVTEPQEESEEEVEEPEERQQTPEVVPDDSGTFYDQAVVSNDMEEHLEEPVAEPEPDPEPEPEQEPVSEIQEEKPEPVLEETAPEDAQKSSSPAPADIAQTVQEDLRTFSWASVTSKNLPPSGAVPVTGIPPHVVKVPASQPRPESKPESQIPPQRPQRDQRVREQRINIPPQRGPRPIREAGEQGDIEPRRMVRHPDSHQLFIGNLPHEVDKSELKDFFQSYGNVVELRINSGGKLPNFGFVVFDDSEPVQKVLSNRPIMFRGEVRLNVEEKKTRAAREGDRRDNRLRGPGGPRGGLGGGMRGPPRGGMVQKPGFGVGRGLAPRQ
Technique: RNA Bind-n-Seq
Molecule type: RNA
Sample: in vitro
Tested at: 1 µM
Setting: whole 134-nt RNA, ends assumed
Added: 150 mM KCl
Relative to: input library
Direction: higher = stronger binding
Shared flanks, not repeated: GGGAGUUCUACAGUCCGACGAUC … UGGAAUUCUCGGGUGUCAAGG
Sequence | log2 enrichment
UCCUGUGCUACACAUCGUAUGUACCGAAUCGGGGUUUUUGGGGAAAAAAAGGGGUGGGGAAAGUAUUAUGUUACGCCGUUCGGAUCUGCA | 0.57
UGGCCCUGGAGGCAUGCGGGGAGGAAGAGGUGGCCUCAUGGAUCGUGGUGGUCCCGGUGGAAUGUUCAGAGGUGGCCGUGGUGGAGACAG | 0.769
CCUGUGCUACACAUCGUAUGUACCGAAUCAAAUUUUUUUAAAUUUUUAAACCCCCCCAAAAAAGUAUUAUGUUACGCCGUUCGGAUCUGC | -0.987
CCUCAAGUCCUGUGCUACACAUCGUAUGUACCGAAUCGGGUGGGUGGGAGGGAAAGUAUUAUGUUACGCCGUUCGGAUCUGCACUUCCAG | 0.754
UCCUGUGCUACACAUCGUAUGUACCGAAUCGGCCCCCCGGGGCCCCCCGGCCCCCCGGGGAAAGUAUUAUGUUACGCCGUUCGGAUCUGC | -0.493
AAGUCCUGUGCUACACAUCGUAUGUACCGAAUCGGGGUUUGGGGUUUGGUUUGGGGAAAGUAUUAUGUUACGCCGUUCGGAUCUGCACUU | -0.302
UAACUUUAGAGGAGGAUCUGAUGGAUAUGGCAGUGGACGUGGAUUUGGGGAUGGCUAUAAUGGGUAUGAAGGAGGACCUGGAGGUGGCAA | -0.345
UCAAGUCCUGUGCUACACAUCGUAUGUACCGAAUCGGGAAAGGGAAAGGGUGGGAAAGUAUUAUGUUACGCCGUUCGGAUCUGCACUUCC | 0.678
UAACUUUAGAGGAGGAUCUGAUGGAUAUGGCAGUGGACGUGGAUUUGUGGAUGGCUAUAAUGGGUAUGGAGGAGGACCUGGAGGUGGCAA | -0.418
UCAAGUCCUGUGCUACACAUCGUAUGUACCGAAUCGGAAAGGAAAAAGGUUUGGAAAGUAUUAUGUUACGCCGUUCGGAUCUGCACUUCC | -0.123
AGUCCUGUGCUACACAUCGUAUGUACCGAAUCGGGAAAAAAAGGGUGGGAAAAAGGGAAAGUAUUAUGUUACGCCGUUCGGAUCUGCACU | 0.591
UCAAGUCCUGUGCUACACAUCGUAUGUACCGAAUCGGUUUUUGGUUUGGAAAGGAAAGUAUUAUGUUACGCCGUUCGGAUCUGCACUUCC | -0.212
CAAGUCCUGUGCUACACAUCGUAUGUACCGAAUCGGAAAAAGGAGGAAAAAAAGGAAAGUAUUAUGUUACGCCGUUCGGAUCUGCACUUC | -0.0831
GCAGGAAGUAAAAACAAAUGGAAAUGCUUCGGAAAGUGGCAGGGGUGGGGGUUGCUAAGGAAAGGGUGGGAUGGGAGUGGGUAAAGAGUU | 1.41

Set 4
Target: CCNE1, cyclin fold, Cln2 fusion (human)
Technique: yeast growth competition, sequencing
Sample: yeast
Setting: weak parent motif
Relative to: not given
Direction: higher = stronger binding
Starting sequence: WEE1 docking peptide (human); HKTFRKLRLFDTP
Variant | normalised enrichment score
T3M | 0.404
L7D | -0.519
D11S | 0.532
K2H | 0.251
R5D | 0.666
K6H | 0.43
T12P | -0.189
T3D | 0.524
L7A | -0.444
K2C | 0.727
T12E | 1.19
L7F | 0.827
F10P | 0.456
H1Q | 1.03
K6L | 0.138
K6Y | 0.654
R8M | 1.3
K2D | 1.11
L9Q | 0.919
T12D | 1.42
T12M | 1.31
R8C | 0.833
R5A L7A | 1.01
L9W | 0.555
R5S | 0.481

Repeated from above (set 4):
Variant | normalised enrichment score
L7D | -0.519
D11S | 0.532
R5D | 0.666
K6H | 0.43
R5S | 0.481
T3D | 0.524
L7F | 0.827
F10P | 0.456
K6L | 0.138
